Experimental data of several laboratories.
Compare with care: the assays were run in different laboratories. ± marks the error that the study gave.
uncharacterized protein: uncharacterized protein (Streptococcus mutans serotype c, UniProt Q8DS94)
histidine kinase ComD: histidine kinase ComD (Streptococcus pneumoniae serotype 2, UniProt A0A0H2ZM50)

Compound | target | assay | system | setting | how to read | EC50 [µM]
CC(C)C[C@H](NC(=O)[C@H](CO)NC(=O)CNC(=O)[C@@H](N)CO)C(=O)N[C@@H](CO)C(=O)N[C@H](C(=O)N[C@@H](Cc1ccccc1)C(=O)N[C@@H](Cc1ccccc1)C(=O)N[C@@H](CCCNC(=N)N)C(=O)N[C@@H](CC(C)C)C(=O)N[C@@H](Cc1ccccc1)C(=O)N[C@@H](CC(N)=O)C(=O)N[C@@H](CCCNC(=N)N)C(=O)N[C@H](CO)C(=O)N[C@@H](Cc1ccccc1)C(=O)N[C@H](C(=O)N[C@@H](CCC(N)=O)C(=O)N[C@@H](C)C(=O)O)[C@@H](C)O)[C@@H](C)O | uncharacterized protein |  | Streptococcus mutans |  |  | > 1
CCN(Cc1ccccc1)C(=O)CCc1nc(CN2CCN(C(=O)Cc3ccc(OC)c(OC)c3)CC2)no1 | Potassium voltage-gated channel subfamily KQT member 5 (KCNQ5, Homo sapiens, UniProt Q9NR82) | ion current, opener, whole-cell patch clamp | transfected cells |  |  | 0.0271 ± 0.00306
CC1(C)CCC(C)(C)c2c1cc(C(=O)Nc1cc(F)c(C(=O)O)c(F)c1)c(O)c2Cl | Retinoic acid receptor gamma (RARG, Homo sapiens, UniProt P13631) | reporter gene, agonist, luciferase |  |  |  | > 5
Cc1cc(C2=CCN(CC3OCCO3)CC2)cc([N+](=O)[O-])c1N | 5-hydroxytryptamine receptor 2A (HTR2A, Homo sapiens, UniProt P28223) |  |  |  |  | 0.933
Nc1ncnc2c1ncn2C1OC(COP(=O)(O)OP(=O)(O)OCC2OC(O)C(O)C2O)C(O)C1O (stereo not shown) | TRPM2 (Nematostella vectensis, UniProt A7T1N0, R329A) | channel activation, agonist, inside-out patch clamp |  | estimate uncertain, together with: 125 µM Ca2+ and 2.5 µM PIP2 |  | 1710 ± 934
CC(C)C[C@H](NC(=O)[C@H](C)NC(=O)[C@H](CCC(N)=O)NC(=O)[C@@H](NC(=O)[C@H](Cc1ccccc1)NC(=O)[C@H](CO)NC(=O)[C@H](CCCNC(=N)N)NC(=O)[C@H](CC(N)=O)NC(=O)[C@H](Cc1ccccc1)NC(=O)[C@H](CC(C)C)NC(=O)[C@H](CCCNC(=N)N)NC(=O)[C@H](Cc1ccccc1)NC(=O)[C@H](Cc1ccccc1)NC(=O)[C@@H](NC(=O)[C@H](CO)NC(=O)[C@H](CC(C)C)NC(=O)[C@H](CO)NC(=O)CNC(=O)[C@H](N)CO)[C@@H](C)O)[C@@H](C)O)C(=O)NCC(=O)N[C@@H](CCCCN)C(=O)O | uncharacterized protein |  | Streptococcus mutans |  |  | 0.14
CC[C@H](C)[C@H](NC(=O)[C@H](Cc1ccccc1)NC(=O)[C@H](Cc1c[nH]cn1)NC(=O)[C@@H](NC(=O)[C@H](CCC(N)=O)NC(=O)[C@H](CCCNC(=N)N)NC(=O)[C@@H](NC(=O)[C@@H](N)CCC(=O)O)[C@@H](C)CC)[C@@H](C)O)C(=O)N[C@@H](Cc1ccccc1)C(=O)N[C@@H](Cc1ccccc1)C(=O)N[C@@H](Cc1ccccc1)C(=O)N[C@@H](Cc1ccccc1)C(=O)N[C@@H](Cc1ccccc1)C(=O)N[C@@H](CCCCN)C(=O)N[C@@H](CCCNC(=N)N)C(=O)N[C@@H](CCCNC(=N)N)C(=O)O | histidine kinase ComD | reporter gene, agonist | Streptococcus pneumoniae, D39 comX::lacZ | 30 min, pH 7.3, 37 °C |  | > 10
CC(C)C[C@H](NC(=O)[C@H](C)NC(=O)[C@H](CCC(N)=O)NC(=O)[C@@H](NC(=O)[C@H](Cc1ccccc1)NC(=O)[C@H](CO)NC(=O)[C@H](CCCNC(=N)N)NC(=O)[C@H](CC(N)=O)NC(=O)[C@H](Cc1ccccc1)NC(=O)[C@H](CC(C)C)NC(=O)[C@H](CCCNC(=N)N)NC(=O)[C@H](Cc1ccccc1)NC(=O)[C@H](Cc1ccccc1)NC(=O)[C@@H](NC(=O)[C@@H](N)CO)[C@@H](C)O)[C@@H](C)O)C(=O)NCC(=O)N[C@@H](CCCCN)C(=O)O | uncharacterized protein |  | Streptococcus mutans |  |  | 3.6
CC[C@H](C)[C@H](NC(=O)[C@H](CC(N)=O)NC(=O)[C@H](Cc1c[nH]cn1)NC(=O)[C@@H](NC(=O)[C@H](CCC(N)=O)NC(=O)[C@H](CCCNC(=N)N)NC(=O)[C@@H](NC(=O)[C@@H](N)CCC(=O)O)[C@@H](C)CC)[C@@H](C)O)C(=O)N[C@@H](Cc1ccccc1)C(=O)N[C@@H](CC(=O)O)C(=O)N[C@@H](CC(N)=O)C(=O)N[C@@H](Cc1ccccc1)C(=O)N[C@@H](Cc1ccccc1)C(=O)N[C@@H](CCCCN)C(=O)N[C@@H](CCCNC(=N)N)C(=O)N[C@@H](CCCNC(=N)N)C(=O)O | histidine kinase ComD | reporter gene, agonist | Streptococcus pneumoniae, D39 comX::lacZ | 30 min, pH 7.3, 37 °C |  | > 10
CC(C)CC(=O)NC1CCCC1=O (stereo not shown) | HTH-type quorum-sensing regulator RhlR (rhlR, Pseudomonas aeruginosa, UniProt P54292) | reporter gene, agonist, refers to: rhlI-gfp fluorescence | PAO-JP2 reporter |  |  | 11.2
CC[C@H](C)[C@H](NC(=O)[C@H](Cc1ccccc1)NC(=O)[C@@H](N)CO)C(=O)N[C@@H](CCCCN)C(=O)N1CCC[C@H]1C(=O)N[C@@H](CC(N)=O)C(=O)N[C@@H](CC(N)=O)C(=O)N[C@H](C(=O)N1CCC[C@H]1C(=O)N[C@@H](CCCNC(=N)N)C(=O)N[C@H](C(N)=O)C(C)C)C(C)C | Ecdysis triggering hormone receptor A (Aedes aegypti, UniProt A7J264) |  |  |  |  | ~0.764
CC[C@H](C)[C@H](NC(=O)[C@H](CC(C)C)NC(=O)c1ccco1)C(=O)NCC(=O)N[C@@H](CCCN=C(N)N)C(=O)N[C@@H](CC(C)C)C(=O)N[C@@H](CCCN)C(N)=O | Proteinase-activated receptor 2 (F2RL1, Homo sapiens, UniProt P55085) | cell impedance response, agonist, real-time cell analysis | 16HBE14o- | 240 min |  | 0.13
CSCC[C@H](NC(=O)[C@H](CC(C)C)NC(=O)[C@H](CO)NC(=O)CNC(=O)[C@@H](NC(=O)[C@H](C)NC(=O)[C@H](Cc1c[nH]c2ccccc12)NC(=O)[C@H](CC(C)C)NC(=O)[C@@H]1CCC(=O)N1)C(C)C)C(N)=O | Neuromedin-B receptor (NMBR, Homo sapiens, UniProt P28336) | inositol phosphate generation, agonist | BALB/3T3 expressing human NMBR | 45 min, 37 °C | baseline: 1 µM neuromedin B | 0.0151 ± 0.0007

Repeated from above:
Compound | target | assay | system | setting | how to read | EC50 [µM]
Cc1cc(C2=CCN(CC3OCCO3)CC2)cc([N+](=O)[O-])c1N | 5-hydroxytryptamine receptor 2A (HTR2A, Homo sapiens, UniProt P28223) |  |  |  |  | 0.933
